Published values pooled from the literature.
Parts stem from different laboratories: compare values within a part only.

Block 1
Target: Fragile X messenger ribonucleoprotein 1, C-terminal low-complexity region (Fmr1, Mus musculus, UniProt P35922)
Method: RNA Bind-n-Seq
Form: RNA
Matrix: in vitro
Concentration: 200 nM
Setting: whole 134-nt RNA, ends assumed
Together with: 150 mM KCl
Relative to: input library
Direction: higher = stronger binding
All sequences stand within: GGGAGUUCUACAGUCCGACGAUC … UGGAAUUCUCGGGUGUCAAGG
Sequence | log2 enrichment
CCUGUGCUACACAUCGUAUGUACCGAAUCAAAUUUUUAAACCCCCCCAAAUUUUUUUAAAAAAGUAUUAUGUUACGCCGUUCGGAUCUGC | 0.277
AAGUCCUGUGCUACACAUCGUAUGUACCGAAUCGGGGUGGGGUUUUUGGGGAGGGGAAAGUAUUAUGUUACGCCGUUCGGAUCUGCACUU | 1.1
AGUCCUGUGCUACACAUCGUAUGUACCGAAUCGGGUGGGUUUUUGGGAAAAAAAGGGAAAGUAUUAUGUUACGCCGUUCGGAUCUGCACU | 0.192
UGGGAGGUGGAUUUUGUUUAUUCUUUUAGCUCAUUUCCAGGGGUGGGAAUUUUUUUUUAAUAUGUGUCAUGAAUAAAGUUGUUUUUGAAA | 0.195
UAACUUAAGAGGAGGAUCUGAUGGAUAUGGCAGUGGACGUGGAUUUGGGGAUGGCUAUAAUGGGUAUGGAGGAGGACCUGGAGGUGGCAA | 0.329
GCAGGAAGUAAAAACAAAUGGAAAUGCUUCGGAUAGUGGCAGGGGUGGGGGUUGCUAAGGAAAUGGUGGGAUGGGAGUGGGUAAAGAGUU | 0.0603
CCUGUGCUACACAUCGUAUGUACCGAAUCGGGGUGGGGUUUUUUUGGGGAAAAAAAGGGGAAAGUAUUAUGUUACGCCGUUCGGAUCUGC | 0.361
AAGUCCUGUGCUACACAUCGUAUGUACCGAAUCGGAAAAGGAAAAGGGGAAAAGGGGAAAGUAUUAUGUUACGCCGUUCGGAUCUGCACU | -0.101
CACAGACAACACGCACCCACACAGACACAGAGGGAAUGGGUUGGGAUGGGGACAGGGUGCACAGCAGGGCGGGGUAGGACCCCAGCCCCU | 1.45
UGGGAGGUGGAUUUUGUUUAUUUUUUUAGCUCAUUUCCAGGGGUGGGAAUUUUUUUUUAAUAUGUGUCAUGAAUAAAGUUGUUUUUGAGA | 0.641
UCAAGUCCUGUGCUACACAUCGUAUGUACCGAAUCGGCCCGGCCCGGGGCCCGGAAAGUAUUAUGUUACGCCGUUCGGAUCUGCACUUCC | -0.493
CCUCAAGUCCUGUGCUACACAUCGUAUGUACCGAAUCGGAGGGGAGGGAGGGGAAAGUAUUAUGUUACGCCGUUCGGAUCUGCACUUCCA | 1.39
AGUCCUGUGCUACACAUCGUAUGUACCGAAUCAAACCCAAACCCAAAUUUUUUUAAAAAAGUAUUAUGUUACGCCGUUCGGAUCUGCACU | -0.296
CAAGUCCUGUGCUACACAUCGUAUGUACCGAAUCGGGUUUGGGAAAGGGAAAGGGAAAGUAUUAUGUUACGCCGUUCGGAUCUGCACUUC | 0.689

Block 2
Target: Histone acetyltransferase KAT6A, both winged helices, GST fusion (KAT6A, Homo sapiens, UniProt Q92794, residues 1-181)
Method: protein binding microarray
Form: double-stranded DNA, one strand shown
Matrix: in vitro
Concentration: not given
Setting: 8-mer, flanks averaged, mean of 2 arrays, mostly near background
Relative to: not given
Direction: higher = stronger binding
Construct (chain): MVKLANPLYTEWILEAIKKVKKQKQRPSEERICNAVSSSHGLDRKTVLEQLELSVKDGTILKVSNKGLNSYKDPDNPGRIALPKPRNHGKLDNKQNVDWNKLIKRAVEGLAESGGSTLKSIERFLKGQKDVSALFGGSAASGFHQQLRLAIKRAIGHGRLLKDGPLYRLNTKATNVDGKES
Sequence | E-score
CAGAATGA | -0.0276
CCTTTGGA | -0.188
ATGGGAAA | -0.152
GGTAAGTA | -0.00609
GGCGAGAA | -0.00734
CTACGGGA | 0.258
AAAACTAA | -0.0929
AATTATCA | -0.00488
GCGTGCAA | 0.132
CCATAACG | 0.0522
TAAGGCCA | -0.0504
CTCTGGTA | -0.205
ACCCTCCC | 0.0416
AGCCAGCC | -0.275
ATCTTCAA | -0.0783
AACAAGTA | -0.145
GGAATTTA | -0.00356
TAAGACAA | 0.00689
TTACCTAA | -0.198
CGGGGTTA | 0.236
CCAGGGCC | -0.0163

Block 3
Target: RNA binding protein fox-1 homolog 2, RRM domain, GST-SBP tag (RBFOX2, Homo sapiens, UniProt O43251-10, residues 100-194)
Method: RNA Bind-n-Seq
Form: RNA
Matrix: in vitro
Concentration: 365 nM
Setting: natural RNA segment, single round, ends assumed
Relative to: no-protein control
Direction: higher = stronger binding
All sequences stand within: GGGAGUUCUACAGUCCGACGAUC … UGGAAUUCUCGGGUGCCAA
Residues (chain): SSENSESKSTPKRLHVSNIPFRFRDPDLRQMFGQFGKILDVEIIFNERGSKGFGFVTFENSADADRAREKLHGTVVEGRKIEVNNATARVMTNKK
Sequence | RBNS enrichment (R)
UCCCCAGUAAGUCUGAGUGGUUCCUUCAAGCUGGGUGUCUUUCCAGCCUUUGCCAGUCUAGCCCCAGCAGGGCACCGUGUAUGAAUGCAGUUUGGUGCUGUUUUAGAGUA | 1.11
UCAAAGACUUUUGUAGCAUACAAAGUGAAAACUUGUAUCUGCGAAACUAUACUUGUAUUAAAUGUGCUUUUUAAAUAAAAGCUCGUAACACAACUAAUUAAGGACUUGCA | 1.12
AUUUUGUAUGUAAAUGUGUUAGCACUGAUAGUCCUUUUCCAGUGUUUUAUUGGGAAAUUAAAUAGUGUGAUAUUUGGGUUGAUAUAAUGAAAUCCUCAGCCUGGAAACUG | 0.935
GUUAGUCGCUAACUUAGUAAGUGCUUUUCUUAUAGAACCCCUUCUGACUGAGCAAUAUGCCUCCUUGUAUUAUAAAAUCUUUCUGAUAAUGCAUUAGAAGGUUUUUUUGU | 0.626
CCCAGGGUGGCGGUGGUGGCAGCAGUGAUCCUCUGAACCUGCAGAGGCCCCCUCCCCGAGCCUGGCCUGGCUCUGGCCCGGUCCUAAGCUGGACUCCUCCUACACAAUUU | 0.251
GGGGUAAUUGUCUCUUGGUGGGCCCAGUUAGUGGGCCUUCCUGAGUGUGUGUAUGCGGUCUGUAACUAUUGCCAUAUAAAUAAAAAAUCCUGUUGCACUAGUGUCCUGCC | 0.699
UACUCCACGCUGUAUAUCUUUCCAUGCUCCGGCUGCCUGGACCAGUAAAUAAAAUGGAUGUAAUAUAAGUUGUAAGUAACGUUGUCAAAACUCUGAUCCCGAUGGAGGCU | 0.437
GACUUACCCUUCAUUGAAGAGAAAAAGAAGACAGUCAAAAAAGGUCCAGGUUACAAAGUUCUCCUCAUAGGUGGAAAGGUUUACUGCAGUGUUAUCCUCUAAGUGUGAUA | 0.823
UUUUGUAGUUGAUUUUUCCAAGAGCGUCGAAGACUCUCUUUCUCUUGGUUCACCUUGCCUGUCGCUAGCAAGCAUCUGGUUCAGCGGAAAUGGGAUGUGAGAAUGAUGAA | 4.66
UGAAUGUGUAUAGGUCAGAGGUCUUCGUGUUCACAUUUUAAAAUUAGGUAAAUGACCUCAUCUUUCAAGCUUGAAUUCAUUUUUAAUUUUAAUUUUAUUUUAUACAAUGU | 2.92
AAACUAUCAACAGGUGUACAAGAGUCAUGUUCAUUUAGAAUAGAGCAGUGUAAAUGCUAGGCCUCAGAAAUCUGAAAAAAGAUAGCAAAGAAAGUGGGUUUGGAACGUAU | 0.721
GCCCUAGGUUACAUUUUUGGUGAUGAUCCUCUCAGAACUUUUGUAAUUUUAUUUUAAAAUGUGUAUAUAUCAGGCUUAAUAAAGAUACUCUUUUAAGCUAUACACCUAGA | 0.71

Block 4
Target: Interferon regulatory factor 7, full length, phosphomimetic (IRF7, Homo sapiens, UniProt Q92985, residues 1-503, S471D/S472D/S475D/S476D/S477D/S483D/S484D/S487D)
UniProt Q92985, sequence (whole entry, unmodified, looked up): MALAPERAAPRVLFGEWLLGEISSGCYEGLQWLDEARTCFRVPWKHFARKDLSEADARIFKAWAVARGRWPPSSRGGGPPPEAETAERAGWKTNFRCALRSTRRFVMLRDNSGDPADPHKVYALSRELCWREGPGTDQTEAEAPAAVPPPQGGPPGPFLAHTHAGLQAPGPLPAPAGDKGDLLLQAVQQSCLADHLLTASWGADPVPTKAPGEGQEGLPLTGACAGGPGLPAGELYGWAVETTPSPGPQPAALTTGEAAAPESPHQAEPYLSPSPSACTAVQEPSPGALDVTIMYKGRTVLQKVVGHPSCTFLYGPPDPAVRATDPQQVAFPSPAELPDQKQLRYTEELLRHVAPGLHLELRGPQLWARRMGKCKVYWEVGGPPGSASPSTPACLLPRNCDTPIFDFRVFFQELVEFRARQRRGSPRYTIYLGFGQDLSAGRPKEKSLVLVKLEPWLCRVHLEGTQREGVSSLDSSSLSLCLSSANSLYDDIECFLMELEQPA
Method: protein-binding microarray
Form: double-stranded DNA, one strand shown
Matrix: in vitro
Concentration: 2200 nM top
Setting: 60-bp whole probe
Together with: salmon DNA 0.4 mg/ml
Relative to: random background probes
Direction: higher = stronger binding
All sequences stand within: GCCTAGCAC … GTCTTGATTCGCTTGACGCTGCTG
Sequence | fitted relative affinity
AAGTTTACCCATCTCCAGTAGTGCTAG | 1.33 z-score
AGTAATGACCTTCTCAGGAGGTGCTAG | -0.0557 z-score
TTAGGTATCGGTCTCGGATAGTGCTAG | 0.885 z-score
GACGATATCATTATCGAGACGTGCTAG | 0.332 z-score
TTAGAACTGGGGACTGGATTAGTGCTA | -0.52 z-score
GACGATTTCAGTTCCGAGAAGTGCTAG | 1.38 z-score
TCATATATACAAACTAAGACTGTGCTA | -0.137 z-score
GACGGTTCCCGTTTCGGGACGTGCTAG | 2.91 z-score
TTAGGTCGCCTTATCCTTTAGTGCTAG | 0.395 z-score
CTTCCCCTCTCTTTCCAACTGTGCTAG | 2.56 z-score
TGGGCATTTTTTTTATCAATGTGCTAG | -0.368 z-score
TTAGACATCAGTCTCGATTAGTGCTAG | 0.0764 z-score
TTGCTTTCCTTTATGTACTCGTGCTAG | 3.66 z-score
GACGGTTCCCTACTGCTGACGTGCTAG | 1.17 z-score
TTCTCTTTCACTACTCCATTGTGCTAG | 3.78 z-score
TTACGTTTCCTACTGCTTTAGTGCTAG | 3.99 z-score
GACGAACTGGGTCTCGGGACGTGCTAG | -0.114 z-score
GACGAACTGGGTTTTCGAGACGTGCTA | 1.38 z-score
CCTTTTATGGTTTTTTTTTAGTGCTAG | 1.63 z-score
TTAGGTAACCTTATCCTTTAGTGCTAG | 0.119 z-score
GTTTGTGTGTGTATGTGGTCGTGCTAG | 1.21 z-score

Excerpt of the above (block 1):
Sequence | log2 enrichment
CCUCAAGUCCUGUGCUACACAUCGUAUGUACCGAAUCGGAGGGGAGGGAGGGGAAAGUAUUAUGUUACGCCGUUCGGAUCUGCACUUCCA | 1.39
AAGUCCUGUGCUACACAUCGUAUGUACCGAAUCGGAAAAGGAAAAGGGGAAAAGGGGAAAGUAUUAUGUUACGCCGUUCGGAUCUGCACU | -0.101
AAGUCCUGUGCUACACAUCGUAUGUACCGAAUCGGGGUGGGGUUUUUGGGGAGGGGAAAGUAUUAUGUUACGCCGUUCGGAUCUGCACUU | 1.1
UAACUUAAGAGGAGGAUCUGAUGGAUAUGGCAGUGGACGUGGAUUUGGGGAUGGCUAUAAUGGGUAUGGAGGAGGACCUGGAGGUGGCAA | 0.329
GCAGGAAGUAAAAACAAAUGGAAAUGCUUCGGAUAGUGGCAGGGGUGGGGGUUGCUAAGGAAAUGGUGGGAUGGGAGUGGGUAAAGAGUU | 0.0603
UCAAGUCCUGUGCUACACAUCGUAUGUACCGAAUCGGCCCGGCCCGGGGCCCGGAAAGUAUUAUGUUACGCCGUUCGGAUCUGCACUUCC | -0.493
CCUGUGCUACACAUCGUAUGUACCGAAUCAAAUUUUUAAACCCCCCCAAAUUUUUUUAAAAAAGUAUUAUGUUACGCCGUUCGGAUCUGC | 0.277
UGGGAGGUGGAUUUUGUUUAUUUUUUUAGCUCAUUUCCAGGGGUGGGAAUUUUUUUUUAAUAUGUGUCAUGAAUAAAGUUGUUUUUGAGA | 0.641
